Experimental data pooled from the literature.
Protocols differ between the studies behind these lines. Numbers after ± are the reported error.
Sequence of UniProt P05177 (whole entry, looked up): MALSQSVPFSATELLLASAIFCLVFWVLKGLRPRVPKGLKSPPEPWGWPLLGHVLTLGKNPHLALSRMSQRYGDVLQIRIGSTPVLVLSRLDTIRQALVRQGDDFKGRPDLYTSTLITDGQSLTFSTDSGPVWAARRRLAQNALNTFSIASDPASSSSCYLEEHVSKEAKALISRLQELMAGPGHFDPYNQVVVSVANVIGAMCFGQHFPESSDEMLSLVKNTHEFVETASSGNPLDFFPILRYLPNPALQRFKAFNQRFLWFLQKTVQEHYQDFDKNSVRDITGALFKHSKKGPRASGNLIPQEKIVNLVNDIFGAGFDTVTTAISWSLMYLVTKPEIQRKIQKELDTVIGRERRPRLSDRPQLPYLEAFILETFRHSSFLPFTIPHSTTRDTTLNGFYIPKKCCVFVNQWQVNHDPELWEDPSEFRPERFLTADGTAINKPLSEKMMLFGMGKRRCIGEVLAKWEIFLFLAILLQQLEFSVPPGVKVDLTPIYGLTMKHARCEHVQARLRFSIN

CN(C)CCCSC(=S)N1CCN(C(=O)/C=C/c2coc3ccc(F)cc3c2=O)CC1
protective effect (tomato spotted wilt virus; viral infection, half-leaf method; Nicotiana glutinosa; 500 µg/mL): 63.8 ± 7.2%

O=c1[nH]cc(C(c2ccc(Cl)cc2)c2c[nH]c(=O)[nH]c2=O)c(=O)[nH]1
viability (Mo7e; cell growth or viability, WST-1; 1 µg/mL, 24 h): > 90%

N=C(N)NCCC[C@@H]1NC(=O)[C@H](Cc2c[nH]c3ccccc23)NC(=O)[C@@H](CC2CCCCC2)NC(=O)[C@@H]2CCCN2C(=O)[C@@H](NC(=O)CCc2ccccc2)CCCNC1=O
MRT(0-inf) (C57BL/6J mouse, plasma brain; intraperitoneal, 1 mg/kg single dose): 1.24 h

COc1ccc(-c2coc3c(CC=C(C)C)c(O)c(CC=C(C)C)c(O)c3c2=O)cc1O
viability (SW480; cell growth or viability, MTT; 50 µg/mL): 12.6%

CNc1ccc(-c2nc3ccc(O)c(CN4CCN(C)CCN(C)CC4)c3s2)cn1
viability (N2a; 10 µM, 40 h, together with: Aβ42 20 µM + CuCl2 20 µM; reference: DMSO control): ≤ 80%

[64Cu+2].c1cnc(CNCc2ccc(CN3CCCN4CCNCCCN(CC4)CC3)cc2)nc1
tissue uptake (CXCR4; NOD/SCID mouse, U87 and U87-stb-CXCR4 xenografts, stomach; iv, 60 min, ex vivo): 2.85 ± 0.28 %ID/g

Cc1ccc(C(C)C)cc1.Cc1ncc(CO)c(C=NNC2=Nc3ccccc3-c3[nH]c4ccc(Br)cc4c3C2)c1O.[Cl-].[Cl][Ru+]
viability (SW480; annexin V/PI flow cytometry; 5 µM, 48 h): 56%

O=C1CCNCN1Cc1ccccc1
viability (DH82; cell growth or viability, MTT; 200 µM, 24 h): 98.3%

COc1cc2c(cc1O)[C@]1(O)C(=O)c3c(O)cc4c(c3O[C@@H]1CO2)C=CC(C)(C)O4
viability (SW480; cell growth or viability, MTT; 50 µg/mL): 7.72%

C=CC(=O)Nc1cccc2c1cc(C)n2-c1nc2c(c(NCc3ccccc3)n1)CCCC2
viability (Huh-7 cells, uninfected; 0.5 µM, 5 days): 57 ± 4%

CN(C)CCCSC(=S)N1CCN(C(=O)/C=C/c2coc3ccccc3c2=O)CC1
curative effect (tomato spotted wilt virus; viral infection, half-leaf method; Nicotiana glutinosa; 500 µg/mL): 64.4 ± 7.9%

O=c1[nH]cc(C(c2ccccc2Br)c2c[nH]c(=O)[nH]c2=O)c(=O)[nH]1
viability (Mo7e; cell growth or viability, WST-1; 1 µg/mL, 24 h): > 90%

Cc1ccc(C(C)C)cc1.Oc1ccccc1C=NNC1=Nc2ccccc2-c2[nH]c3ccc(Br)cc3c2C1.[Cl-].[Cl][Ru+]
viability (SW480; annexin V/PI flow cytometry; 5 µM, 48 h): 15%

CC(=O)OC(CCl)Cn1cncc1[N+](=O)[O-] (stereo not drawn)
mutagenic potency (Salmonella enterica serovar Typhimurium; Ames test, Bernstein slope; TA97): 2.13 ± 0.14 revertants/µg

C=CS(=O)(=O)NCCCCCCOCc1cn(CCCCCCNS(=O)(=O)C=C)n[n+]1C
viability (L929; cell growth or viability, resazurin; 50 µM, 72 h): 49.5%

CC(C)=CCc1c2c(c(O)c3c(=O)c(-c4ccc(O)cc4)coc13)CC(C(C)(C)O)O2 (stereo not drawn)
viability (SW480; cell growth or viability, MTT; 100 µg/mL): 8.78%

C=CS(=O)(=O)NCCCCCCOCc1cn(CCCCCCNS(=O)(=O)C=C)nn1
viability (L929; cell growth or viability, resazurin; 50 µM, 72 h): 21.1%

CCC(=O)N(C)c1ccc(Cl)c(Cl)c1
cells with multiple aberrations (CHO-WBL; 0.13 mg/mL, 3 h, with S9 activation): 0%

O=c1[nH]cc(C(c2cccc(C(F)(F)F)c2)c2c[nH]c(=O)[nH]c2=O)c(=O)[nH]1
viability (Mo7e; cell growth or viability, WST-1; 1 µg/mL, 24 h): > 90%

C=CS(=O)(=O)NCCCCCCCCOCc1cn(CCCCCCCCNS(=O)(=O)C=C)n[n+]1C
viability (L929; cell growth or viability, resazurin; 50 µM, 72 h): 37%

N#Cc1c(NC(=O)CCl)sc2c1CCC(c1ccccc1)C2 (stereo not drawn)
viability (LoVo; cell growth or viability, LDH; 100 µg/mL, 24 h): 77%

CC12CCCC(n3cc(C(=O)N4CCCC(N)C4)nn3)(C1)C1CC(C)(C)C1CC2 (stereo not drawn)
viability (HT-29; 0.5 µM, 72 h, together with: Z-VAD-FMK pretreatment 8 h): 96%

C=CC(=O)Nc1cc(Nc2nccc(-c3cn(C)c4ccccc34)n2)c(OCC(F)(F)F)nc1N(C)CCN(C)C
remaining activity (Cytochrome P450 1A2 (CYP1A2, Homo sapiens, UniProt P05177); enzyme activity, inhibitor, refers to: phenacetin O-deethylation; human liver microsomes; 100 µM): 67.2%

CC(C)=CCc1cc(-c2coc3cc(O)c(CC=C(C)C)c(O)c3c2=O)ccc1O
viability (SW480; cell growth or viability, MTT; 100 µg/mL): 6.42%

CN1C(=O)[C@@H](Cc2ccc(O)cc2)NC(=O)CNC(=O)[C@H](Cc2ccc3ccccc3c2)NC(=O)[C@H](CCCNC(=N)N)NC(=O)[C@H]1CCCNC(=O)c1ccc(CNC(=O)CN2CCN(CC(=O)O)CCN(CC(=O)O)CCN(CC(=O)O)CC2)cc1 [gallium-68 labelled]
absorbed dose coefficient (extrapolated to adult male; C57BL/6 mice, brain): 0.00682 mGy/MBq

COc1ccc([C@@H]2CC(=O)c3c(O)cc(O[C@@H]4O[C@H](CO[C@@H]5O[C@@H](C)[C@H](O)[C@@H](O)[C@H]5O)[C@@H](O[C@H]5O[C@H](CO)[C@@H](O)[C@H](O)[C@H]5O)[C@H](O)[C@H]4O)cc3O2)cc1O
viability (MRC5; cell growth or viability, MTS; 100 µg/mL, 48 h): 55.4%

[64Cu+2].c1ccc(CNCc2ccc(CN3CCCN4CCNCCCN(CC4)CC3)cc2)nc1
tissue uptake (CXCR4; NOD/SCID mouse, U87 and U87-stb-CXCR4 xenografts, heart; iv, 90 min, ex vivo): 1.67 ± 0.25 %ID/g

A few entries again:
Cc1ccc(C(C)C)cc1.Cc1ncc(CO)c(C=NNC2=Nc3ccccc3-c3[nH]c4ccc(Br)cc4c3C2)c1O.[Cl-].[Cl][Ru+]
viability (SW480; annexin V/PI flow cytometry; 5 µM, 48 h): 56%

O=C1CCNCN1Cc1ccccc1
viability (DH82; cell growth or viability, MTT; 200 µM, 24 h): 98.3%

COc1cc2c(cc1O)[C@]1(O)C(=O)c3c(O)cc4c(c3O[C@@H]1CO2)C=CC(C)(C)O4
viability (SW480; cell growth or viability, MTT; 50 µg/mL): 7.72%

C=CC(=O)Nc1cccc2c1cc(C)n2-c1nc2c(c(NCc3ccccc3)n1)CCCC2
viability (Huh-7 cells, uninfected; 0.5 µM, 5 days): 57 ± 4%
